# Earlier results, collected from citations in different studies.
# Protocols differ between the studies behind these lines. Values joined by “and” are separate records of one study, mostly repeats; a detail may differ. ± gives the spread as reported.
Structure (SMILES),target or system,test,system,conditions,scale,measurement,result
CCCCCCCCCCC(=O)O[C@H]1CC[C@H]2[C@H]3[C@H]([C@@H](C)C[C@]12C)[C@H]1CCC(=O)C=C1C[C@H]3C,,measured: plasma LH,castrated adult rat,"subcutaneous, 12 mg/kg single",,duration of LH suppression,≥ 18 weeks
C[C@]12CCC(=O)CC1=CC[C@@H]1[C@@H]2CC[C@]2(C)C(=O)CC[C@@H]12,ketosteroid isomerase Y55F,substrate,,"pH 7.0, 3.3 % methanol",,kcat,3510 ± 60 s⁻¹
NC1Cc2cc3c(cc2C1)OCO3,dopamine transporter,[3H]dopamine uptake,synaptosomes,,,IC50,5.92 µM
CCCC(C(=O)c1ccc2c(c1)OCO2)N1CCCC1 (centres unmarked),"dopamine transporter, rat","dopamine uptake, inhibitor",brain synaptosomes,,,IC50,0.0041 ± 0.0005 µM
NC(=O)[C@@H]1CC[C@@H]2CN1C(=O)N2OS(=O)(=O)O,PBP1a,enzyme activity,,highest concentration 50 µM,,IC50,> 50 µM
CO[C@@H]1[C@H](O)[C@@H](COP(=O)(O)OP(=O)([O-])OP(=O)(O)OP(=O)(O)OC[C@H]2O[C@@H](n3cnc4c(=O)[nH]c(N)nc43)[C@H](O)[C@@H]2O)O[C@H]1n1c[n+](C)c2c(O)nc(N)nc21,,,rabbit reticulocyte lysate,mRNA capped with compound,relative to: m7GpppG-capped mRNA,relative translation efficiency,2.56 ± 0.18
CNC(C)C(=O)c1ccc2c(c1)OCO2 (centres unmarked),"serotonin transporter, rat","serotonin uptake, inhibitor",brain synaptosomes,,,IC50,1.02 ± 0.059 µM
COc1ccc(-c2n(CC(=O)OC3CC(C)CCC3C(C)C)c3ccccc3[n+]2C)cc1 (centres unmarked),Mycobacterium tuberculosis,,,>99% growth suppression,,MIC,16.6 µM
CO[C@H]1C[C@H](O[C@H]2CC[C@@]3(C)[C@@H](C2)C[C@@H]2O[C@]24[C@@H]3[C@H](O)C(=O)[C@]2(C)[C@@H](C3=CC(=O)OC3)CC[C@]42O)O[C@@H](C)[C@@H]1O,OVCAR-5,cell viability,,72 h,,IC50,0.44 ± 0.08 µM
NCCc1ccccc1,"TAAR1, mouse",,,,,EC50,0.209 µM
COc1cc2c(cc1C)CC(N)C2 (centres unmarked),serotonin transporter,[3H]serotonin uptake,synaptosomes,,,IC50,0.212 µM
C[C@H]1O[C@@H](O[C@H]2[C@@H](O)C[C@H](O[C@H]3[C@@H](O)C[C@H](O[C@H]4CC[C@@]5(C)[C@H](CC[C@@H]6[C@@H]5C[C@@H](O)[C@]5(C)[C@@H](C7=CC(=O)OC7)CC[C@]65O)C4)O[C@@H]3C)O[C@@H]2C)C[C@H](O)[C@@H]1O,MDA-MB-435,cell viability,,72 h,,IC50,0.17 ± 0.02 µM
COc1ccc(OCc2n(CC(=O)OC3CC(C)CCC3C(C)C)c3ccccc3[n+]2C)cc1 (centres unmarked),Mycobacterium tuberculosis,,,>99% growth suppression,,MIC,16 µM and 15.9 µM
O=C(O)CCCO,,,baboon,"100 mg/kg, first 2 h",relative to: vehicle,food-maintained behaviour,increased
CCCC(C(=O)c1ccc(O)c(OC)c1)N1CCCC1 (centres unmarked),"norepinephrine transporter, rat","norepinephrine uptake, inhibitor",brain synaptosomes,,,IC50,0.407 ± 0.043 µM
CC1CCC(C(C)C)C(OC(=O)Cn2c(-c3ccc(F)cc3)[n+](C)c3ccccc32)C1.[Cl-] (centres unmarked),Mycobacterium tuberculosis,,,>99% growth inhibition,,MIC,28 µM
C=C(C)[C@@H]1CCC(C)=C[C@H]1c1c(O)cc(CC2CN(C(C)=O)C2)cc1O,hippocampal cultures,neuroprotection,,with: ethanol,,EC50,0.023 µM
CCC(CC)COC(=O)[C@H](C)N[P@](=O)(OC[C@H]1O[C@@](C#N)(c2ccc3c(N)ncnn23)[C@H](O)[C@@H]1O)Oc1ccccc1,SARS-CoV-2,viral replication,human airway epithelial cells,,,EC50,5.97 ng/mL
CN1C(=O)CN=C(c2ccccc2)c2cc(Cl)ccc21,α2 GABAA receptor,,,"concentration not given, at analgesia above 50% maximum possible effect",,receptor occupancy,~70%
CNC(C)C(=O)c1ccc(C)cc1 (centres unmarked),"norepinephrine transporter, rat","norepinephrine uptake, inhibitor",brain synaptosomes,,,IC50,0.487 ± 0.066 µM
COc1ccc2c(c1OC)N=C(NC(=O)c1cccnc1)N1CCN=C21,PI4KIIIα,"enzyme activity, inhibitor",,with: 10 µM ATP,,IC50,0.83 µM
NC(=O)c1ncn([C@@H]2O[C@H](CO)[C@@H](O)[C@H]2O)n1,influenza A virus H3N2,"viral replication, MTT",Ishikawa,,,EC50,3.7 µM
CCCC(C(=O)c1ccc(O)c(O)c1)N1CCCC1 (centres unmarked),"norepinephrine transporter, rat","norepinephrine uptake, inhibitor",brain synaptosomes,,,IC50,0.011 ± 0.001 µM
